Measurements gathered from unrelated publications.
Numbered parts are unrelated; each lists some results of a single study. Changes are numbered by the printed parent chain.

Series 1
Target: Prothrombin, mature alpha-thrombin (F2, Homo sapiens, UniProt P00734)
Technique: aptamer microarray, sandwich
Form: DNA with 2'F-ANA
Medium: in vitro
Concentration: 200 nM
Setting: whole 15-mer aptamer, many near background
With: Cy3 exosite-II aptamer, 400 nM
Direction: higher = stronger binding
Measurement: mean fluorescence intensity
Strand: GGTTGGTGTGGTTGG
2'F-ANA at 1 2 3 4 7 8 11 13 14 15: 69.9 a.u.
2'F-ANA at 1 4 7 8 9 12 14: 64.8 a.u.
2'F-ANA at 1 3 4 5 7 8 9 10 11 14 15: 48 a.u.
2'F-ANA at 1 2 5 7 9 14 15: 48.3 a.u.
2'F-ANA at 1 2 3 4 6 9 10 12 14: 51.9 a.u.
2'F-ANA at 2 5 8 10 11 12 13 15: 47.6 a.u.
2'F-ANA at 2 3 4 6 8 9 10 12 13 15: 207 a.u.
2'F-ANA at 3 5 6 9 13 15: 70.4 a.u.
2'F-ANA at 1 3 4 5 6 7 9 10 11 14: 48.7 a.u.
2'F-ANA at 1 6 9 11 12 14: 58.6 a.u.
2'F-ANA at 2 6 8 9 10 11 12 14 15: 101 a.u.
2'F-ANA at 5 7 11 13 14 15: 45.4 a.u.
2'F-ANA at 2 3 4 6 9 10 11 15: 201 a.u.
2'F-ANA at 1 2 4 6 7 8 9 10 11 13 14: 49.6 a.u.
2'F-ANA at 1 3 4 5 6 7 10 12 13 15: 74.6 a.u.

Series 2
Target: CCND1, cyclin fold, Cln2 fusion (human)
Technique: yeast growth competition, sequencing
Medium: yeast
Setting: weak parent motif
Relative to: not given
Direction: higher = stronger binding
Measurement: normalised enrichment score
Starting sequence: MASTL docking peptide (human); PMIAKNLMCELDE; partner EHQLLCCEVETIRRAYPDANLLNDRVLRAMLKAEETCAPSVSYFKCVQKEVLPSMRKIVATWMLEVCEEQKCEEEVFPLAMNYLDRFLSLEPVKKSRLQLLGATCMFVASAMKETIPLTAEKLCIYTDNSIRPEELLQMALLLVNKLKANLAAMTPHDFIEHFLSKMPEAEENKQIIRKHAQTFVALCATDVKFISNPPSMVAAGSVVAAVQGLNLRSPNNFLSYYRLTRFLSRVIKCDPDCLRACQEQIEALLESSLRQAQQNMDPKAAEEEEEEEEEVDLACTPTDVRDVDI
A4G: -0.0565
C9H: -0.361
M2T: 0.416
L7F: -0.213
M2D: 0.301
D12V: 0.195
C9Q: 0.326
L11F: -0.0697

Series 3
Target: Histone acetyltransferase KAT6A, winged helix 2, GST fusion (KAT6A, Homo sapiens, UniProt Q92794, residues 85-181)
Technique: protein binding microarray
Form: double-stranded DNA, one strand shown
Medium: in vitro
Concentration: not given
Setting: 8-mer, flanks averaged, mean of 2 arrays, mostly near background
Relative to: not given
Direction: higher = stronger binding
Measurement: E-score
Residues (chain): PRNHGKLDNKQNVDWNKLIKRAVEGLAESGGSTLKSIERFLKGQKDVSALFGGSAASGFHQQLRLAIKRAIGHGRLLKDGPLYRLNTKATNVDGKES
TACAGAGA: -0.044
GACAGTAC: -0.108
CCCATGCC: 0.0493
CAGTTGGA: -0.0426
GAGACTAA: -0.0737
CGGGGTTC: 0.0107
ACGACACG: -0.0253
CTTGTCTA: -0.112
CCACGATA: -0.00405
AGATATAG: -0.0666
GATAGTGA: 0.0249

Single results of other studies
PhoQ, residues 284 288 289 292 302 303 NLGVHL  fold induction (PhoP, residues 12 14 15 18 19 LQHIR (Escherichia coli, UniProt P23836); Sort-seq, item: YFP reporter; E. coli; PhoQ-PhoP variant library, with: 10 µM Mg2+; relative to: high Mg2+ state, higher = stronger signaling): 7.63

Repeated from above (series 1):
2'F-ANA at 2 6 8 9 10 11 12 14 15: 101 a.u.
2'F-ANA at 2 3 4 6 8 9 10 12 13 15: 207 a.u.
2'F-ANA at 1 2 3 4 7 8 11 13 14 15: 69.9 a.u.
2'F-ANA at 1 2 4 6 7 8 9 10 11 13 14: 49.6 a.u.
2'F-ANA at 2 3 4 6 9 10 11 15: 201 a.u.
